Measurements collected from several papers.
Numbered parts are unrelated; each lists some results of a single study.
UniProt P51812, sequence (whole entry, looked up): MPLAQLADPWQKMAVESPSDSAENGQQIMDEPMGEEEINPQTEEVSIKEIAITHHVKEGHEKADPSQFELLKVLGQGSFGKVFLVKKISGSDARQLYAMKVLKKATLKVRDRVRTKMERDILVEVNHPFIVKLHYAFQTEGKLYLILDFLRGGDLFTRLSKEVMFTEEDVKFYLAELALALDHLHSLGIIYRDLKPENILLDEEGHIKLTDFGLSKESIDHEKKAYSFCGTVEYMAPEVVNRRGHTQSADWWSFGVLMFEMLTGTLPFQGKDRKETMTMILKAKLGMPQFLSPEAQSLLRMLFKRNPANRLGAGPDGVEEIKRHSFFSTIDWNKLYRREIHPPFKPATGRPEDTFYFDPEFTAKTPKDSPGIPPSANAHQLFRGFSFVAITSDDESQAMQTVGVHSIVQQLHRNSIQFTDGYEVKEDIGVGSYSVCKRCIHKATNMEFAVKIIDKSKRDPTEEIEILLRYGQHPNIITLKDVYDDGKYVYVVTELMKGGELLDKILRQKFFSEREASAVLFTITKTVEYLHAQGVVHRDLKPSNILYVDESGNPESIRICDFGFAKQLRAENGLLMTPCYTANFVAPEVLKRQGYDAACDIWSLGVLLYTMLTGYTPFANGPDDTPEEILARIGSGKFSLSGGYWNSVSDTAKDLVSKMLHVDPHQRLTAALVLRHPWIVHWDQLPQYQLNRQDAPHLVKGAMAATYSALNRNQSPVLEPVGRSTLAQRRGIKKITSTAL
UniProt P78356, sequence (whole entry, looked up): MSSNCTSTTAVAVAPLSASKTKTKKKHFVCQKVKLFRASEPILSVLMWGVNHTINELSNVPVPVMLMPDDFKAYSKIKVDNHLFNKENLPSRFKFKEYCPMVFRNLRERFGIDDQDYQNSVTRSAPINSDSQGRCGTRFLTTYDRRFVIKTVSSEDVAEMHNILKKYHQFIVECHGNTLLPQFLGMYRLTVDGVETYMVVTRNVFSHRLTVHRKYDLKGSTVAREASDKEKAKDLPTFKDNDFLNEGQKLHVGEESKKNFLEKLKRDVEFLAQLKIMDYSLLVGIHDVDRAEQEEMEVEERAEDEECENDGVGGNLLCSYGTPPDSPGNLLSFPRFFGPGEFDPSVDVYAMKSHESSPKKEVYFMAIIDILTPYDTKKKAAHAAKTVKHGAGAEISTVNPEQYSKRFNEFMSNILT
UniProt O60674, sequence (whole entry, looked up): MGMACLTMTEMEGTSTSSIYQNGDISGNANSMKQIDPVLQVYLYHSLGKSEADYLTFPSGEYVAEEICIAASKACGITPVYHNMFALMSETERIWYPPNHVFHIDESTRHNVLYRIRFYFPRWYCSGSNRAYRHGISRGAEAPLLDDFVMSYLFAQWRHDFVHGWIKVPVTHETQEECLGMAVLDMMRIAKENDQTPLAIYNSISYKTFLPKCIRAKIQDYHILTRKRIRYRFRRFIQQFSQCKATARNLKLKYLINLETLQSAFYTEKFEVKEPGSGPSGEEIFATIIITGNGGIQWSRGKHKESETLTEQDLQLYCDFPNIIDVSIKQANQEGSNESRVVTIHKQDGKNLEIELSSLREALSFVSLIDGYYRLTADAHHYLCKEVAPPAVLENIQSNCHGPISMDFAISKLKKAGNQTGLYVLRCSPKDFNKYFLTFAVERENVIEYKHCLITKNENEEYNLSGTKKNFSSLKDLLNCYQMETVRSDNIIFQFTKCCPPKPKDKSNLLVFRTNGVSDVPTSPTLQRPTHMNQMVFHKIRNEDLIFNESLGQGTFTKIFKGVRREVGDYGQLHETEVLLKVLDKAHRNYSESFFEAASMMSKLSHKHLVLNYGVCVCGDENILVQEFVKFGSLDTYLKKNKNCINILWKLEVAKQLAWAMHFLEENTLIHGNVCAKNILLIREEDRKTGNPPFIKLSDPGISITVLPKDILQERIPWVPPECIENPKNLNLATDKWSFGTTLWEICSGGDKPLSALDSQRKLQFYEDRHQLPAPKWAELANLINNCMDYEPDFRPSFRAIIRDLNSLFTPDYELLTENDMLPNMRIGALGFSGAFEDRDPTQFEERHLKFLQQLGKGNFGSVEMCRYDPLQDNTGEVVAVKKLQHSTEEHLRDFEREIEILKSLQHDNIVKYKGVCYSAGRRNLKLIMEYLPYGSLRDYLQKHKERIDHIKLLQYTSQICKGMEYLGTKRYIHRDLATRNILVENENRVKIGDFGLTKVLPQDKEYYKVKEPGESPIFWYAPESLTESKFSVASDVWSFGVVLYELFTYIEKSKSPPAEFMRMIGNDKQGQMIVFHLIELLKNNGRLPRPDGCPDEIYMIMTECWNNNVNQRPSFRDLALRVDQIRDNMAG
UniProt Q96GD4, sequence (whole entry, looked up): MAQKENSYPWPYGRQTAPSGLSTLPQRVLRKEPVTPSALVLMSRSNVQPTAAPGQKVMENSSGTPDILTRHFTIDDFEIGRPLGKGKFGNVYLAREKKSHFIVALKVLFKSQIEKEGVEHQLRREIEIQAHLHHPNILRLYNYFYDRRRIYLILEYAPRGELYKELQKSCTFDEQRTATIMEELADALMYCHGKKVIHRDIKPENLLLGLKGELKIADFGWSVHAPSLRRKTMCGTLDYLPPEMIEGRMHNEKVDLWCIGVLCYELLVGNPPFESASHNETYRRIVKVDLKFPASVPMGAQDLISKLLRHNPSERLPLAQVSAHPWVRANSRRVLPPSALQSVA
UniProt P07948, sequence (whole entry, looked up): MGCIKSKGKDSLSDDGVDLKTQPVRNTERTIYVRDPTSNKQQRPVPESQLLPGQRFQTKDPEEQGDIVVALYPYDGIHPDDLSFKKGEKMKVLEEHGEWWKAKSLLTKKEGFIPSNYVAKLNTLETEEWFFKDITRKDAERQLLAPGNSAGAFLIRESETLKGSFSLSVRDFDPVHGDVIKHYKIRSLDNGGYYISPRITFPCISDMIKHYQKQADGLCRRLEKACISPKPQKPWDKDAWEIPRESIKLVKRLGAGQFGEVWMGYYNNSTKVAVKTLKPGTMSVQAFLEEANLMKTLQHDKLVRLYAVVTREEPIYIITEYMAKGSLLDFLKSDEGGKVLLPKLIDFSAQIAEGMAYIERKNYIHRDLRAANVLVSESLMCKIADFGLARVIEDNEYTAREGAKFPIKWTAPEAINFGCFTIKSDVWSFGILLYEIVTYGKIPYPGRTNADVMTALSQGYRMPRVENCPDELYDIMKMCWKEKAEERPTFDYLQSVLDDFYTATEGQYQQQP
UniProt Q15303, sequence (whole entry, looked up): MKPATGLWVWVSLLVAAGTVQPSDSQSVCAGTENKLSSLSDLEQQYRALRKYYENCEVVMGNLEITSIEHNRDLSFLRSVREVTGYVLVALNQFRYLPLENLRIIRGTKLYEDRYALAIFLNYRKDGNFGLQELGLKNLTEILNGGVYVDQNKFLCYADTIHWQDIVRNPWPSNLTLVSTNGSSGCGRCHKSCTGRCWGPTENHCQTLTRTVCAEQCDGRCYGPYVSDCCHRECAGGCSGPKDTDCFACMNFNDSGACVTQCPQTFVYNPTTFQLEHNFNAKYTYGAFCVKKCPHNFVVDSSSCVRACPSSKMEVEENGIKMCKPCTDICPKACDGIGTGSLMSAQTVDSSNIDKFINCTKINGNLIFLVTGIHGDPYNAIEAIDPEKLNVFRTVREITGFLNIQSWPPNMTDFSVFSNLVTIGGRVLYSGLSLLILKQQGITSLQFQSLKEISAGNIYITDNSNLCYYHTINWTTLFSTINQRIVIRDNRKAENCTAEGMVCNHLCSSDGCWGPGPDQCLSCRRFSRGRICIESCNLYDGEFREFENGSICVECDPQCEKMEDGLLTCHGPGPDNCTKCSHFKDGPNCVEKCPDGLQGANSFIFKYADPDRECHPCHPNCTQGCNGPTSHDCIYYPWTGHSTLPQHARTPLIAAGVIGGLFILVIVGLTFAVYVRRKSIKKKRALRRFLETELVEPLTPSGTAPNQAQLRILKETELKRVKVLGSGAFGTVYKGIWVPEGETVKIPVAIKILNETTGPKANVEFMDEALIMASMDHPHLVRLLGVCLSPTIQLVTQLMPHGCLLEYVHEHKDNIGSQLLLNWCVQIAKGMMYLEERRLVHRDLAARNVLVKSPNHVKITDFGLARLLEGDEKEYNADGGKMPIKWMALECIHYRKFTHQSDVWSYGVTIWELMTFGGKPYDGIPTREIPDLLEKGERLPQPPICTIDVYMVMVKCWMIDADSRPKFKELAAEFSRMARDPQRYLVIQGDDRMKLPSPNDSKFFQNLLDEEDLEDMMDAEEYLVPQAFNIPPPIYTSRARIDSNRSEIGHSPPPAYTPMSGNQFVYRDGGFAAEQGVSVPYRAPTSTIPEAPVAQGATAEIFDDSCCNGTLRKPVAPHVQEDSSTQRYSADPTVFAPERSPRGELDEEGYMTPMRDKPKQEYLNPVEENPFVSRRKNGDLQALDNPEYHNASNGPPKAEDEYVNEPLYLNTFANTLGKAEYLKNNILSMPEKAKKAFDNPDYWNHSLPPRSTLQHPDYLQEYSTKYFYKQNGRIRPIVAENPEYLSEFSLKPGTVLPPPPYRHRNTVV
UniProt O94921, sequence (whole entry, looked up): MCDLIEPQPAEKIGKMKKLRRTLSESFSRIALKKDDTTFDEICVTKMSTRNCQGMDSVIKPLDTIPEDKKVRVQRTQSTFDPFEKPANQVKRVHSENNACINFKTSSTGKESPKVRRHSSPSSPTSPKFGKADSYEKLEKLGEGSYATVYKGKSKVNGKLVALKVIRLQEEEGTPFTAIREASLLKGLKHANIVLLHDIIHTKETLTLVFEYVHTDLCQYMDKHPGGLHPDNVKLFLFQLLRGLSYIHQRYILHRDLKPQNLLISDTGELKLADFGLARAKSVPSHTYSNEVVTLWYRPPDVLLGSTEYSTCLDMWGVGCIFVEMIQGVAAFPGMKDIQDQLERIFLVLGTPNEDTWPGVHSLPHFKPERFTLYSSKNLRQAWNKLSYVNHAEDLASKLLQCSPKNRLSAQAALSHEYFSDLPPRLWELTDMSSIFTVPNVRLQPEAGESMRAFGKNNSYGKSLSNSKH

Sample 1 — technique: protein-binding microarray; form: double-stranded DNA, one strand shown; matrix: in vitro; concentration: not given; reading: higher = stronger binding
Target: Myc proto-oncogene protein, bHLH-zipper, MAX partner unstated (MYC, Homo sapiens, UniProt P01106, residues 368-449)
UniProt P01106, sequence (368-449, looked up): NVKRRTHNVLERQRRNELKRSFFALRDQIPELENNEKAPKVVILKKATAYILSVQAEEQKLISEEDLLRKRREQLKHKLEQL
Notes: k-mer, scored over probes, only values ≥0.25
Sequence | E-score
ACACCACA | 0.261
CGTGGGAG | 0.285
CCTGCACG | 0.341
AAATGTGC | 0.299
ACAAGCAT | 0.26
CCCGTGCG | 0.306
GCGCGTGA | 0.349
AGAACGTG | 0.37

Sample 2 — observed: enzyme activity; action: inhibitor; concentration: 0.5 µM
SMILES: Cc1nc(Nc2ncc(C(=O)Nc3c(C)cccc3Cl)s2)cc(N2CCN(CCO)CC2)n1
target | relative to | remaining activity
Dual specificity protein kinase CLK2 (CLK2, Homo sapiens, UniProt P49760) | control | 87.2%
Tyrosine-protein kinase JAK2 (JAK2, Homo sapiens, UniProt O60674) | control | 98.1%
Calcium/calmodulin-dependent protein kinase type 1 (CAMK1, Homo sapiens, UniProt Q14012) | control | 106%
Casein kinase I isoform epsilon (CSNK1E, Homo sapiens, UniProt P49674) | control | 89.5%
Serine/threonine-protein kinase PAK 4 (PAK4, Homo sapiens, UniProt O96013) | control | 98.7%
Tyrosine-protein kinase Yes (YES1, Homo sapiens, UniProt P07947) | control | 1.94%
Casein kinase I isoform delta (CSNK1D, Homo sapiens, UniProt P48730) | control | 84.1%
Tyrosine-protein kinase JAK1 (JAK1, Homo sapiens, UniProt P23458) | control | 101%
Ribosomal protein S6 kinase alpha-3 (RPS6KA3, Homo sapiens, UniProt P51812) | control | 99.8%
Maternal embryonic leucine zipper kinase (MELK, Homo sapiens, UniProt Q14680) | control | 81.4%
Receptor tyrosine-protein kinase erbB-2 (ERBB2, Homo sapiens, UniProt P04626) | control | 79.8%
Dual specificity tyrosine-phosphorylation-regulated kinase 1A (DYRK1A, Homo sapiens, UniProt Q13627) | control | 106%
Cyclin-dependent kinase 2, with cyclin E (CDK2, Homo sapiens, UniProt P24941) | control | 95.9%
Ribosomal protein S6 kinase beta-2 (RPS6KB2, Homo sapiens, UniProt Q9UBS0) | control | 101%
Tyrosine-protein kinase ABL2 (ABL2, Homo sapiens, UniProt P42684) | – | 2.74%
Mitogen-activated protein kinase kinase kinase 20 (MAP3K20, Homo sapiens, UniProt Q9NYL2) | control | 8.63%

Sample 3 — technique: competition with immobilised ligand; concentration: 1 µM
SMILES: O=C1NC(c2ccccn2)Sc2ccccc21 (centres unmarked)
target | observed | remaining binding [%]
Serine/threonine-protein kinase Sgk2 (SGK2, Homo sapiens, UniProt Q9HBY8) | cell-free assay | 72
Leukocyte tyrosine kinase receptor (LTK, Homo sapiens, UniProt P29376) | cell-free assay | 89
Cyclin-dependent kinase 14 (CDK14, Homo sapiens, UniProt O94921) | cell-free assay | 100
Phosphatidylinositol 5-phosphate 4-kinase type-2 beta (PIP4K2B, Homo sapiens, UniProt P78356) | cell-free assay | 100
Cyclin-dependent kinase 11A (CDK11A, Homo sapiens, UniProt Q9UQ88) | binding | 100
Epidermal growth factor receptor (EGFR, Homo sapiens, UniProt P00533, L858R/T790M) | cell-free assay | 100
Interleukin-1 receptor-associated kinase 3 (IRAK3, Homo sapiens, UniProt Q9Y616) | cell-free assay | 87
Receptor tyrosine-protein kinase erbB-4 (ERBB4, Homo sapiens, UniProt Q15303) | cell-free assay | 77
Aurora kinase B (AURKB, Homo sapiens, UniProt Q96GD4) | cell-free assay | 100
Cyclin-dependent kinase 15 (CDK15, Homo sapiens, UniProt Q96Q40) | cell-free assay | 63
Ribosomal protein S6 kinase alpha-3, C-terminal kinase domain (RPS6KA3, Homo sapiens, UniProt P51812) | cell-free assay | 78
Tyrosine-protein kinase Lyn (LYN, Homo sapiens, UniProt P07948) | cell-free assay | 80
ALK tyrosine kinase receptor (ALK, Homo sapiens, UniProt Q9UM73, C1156Y) | cell-free assay | 84

Single results of other studies
Compound | matrix | quantity | result
CCOC(=O)[C@@H]1CSCC(=O)N[C@H](CC)C(=O)N(C)[C@@H](C)C(=O)N[C@@H](CC(C)C)C(=O)N2CCC[C@@H]2C(=O)N(CC(C)C)CC(=O)N[C@H](CC(C)C)C(=O)N(C)[C@H](C)C(=O)N[C@@H](CC(C)C)C(=O)N1C | hydrocarbon/water | logD | 0.661

Some of these lines once more (sample 1):
Sequence | E-score
CCTGCACG | 0.341
CCCGTGCG | 0.306
ACACCACA | 0.261
CGTGGGAG | 0.285
AGAACGTG | 0.37
